Experimental data collected from several papers.
Each numbered part is a random draw from the data of one study; scales do not carry over between parts. Positions count from the first letter of the parent shown.

Series 1
Target: UDP-N-acetylglucosamine--peptide N-acetylglucosaminyltransferase 110 kDa subunit (OGT, Homo sapiens, UniProt O15294)
Sequence of UniProt O15294 (whole entry, looked up): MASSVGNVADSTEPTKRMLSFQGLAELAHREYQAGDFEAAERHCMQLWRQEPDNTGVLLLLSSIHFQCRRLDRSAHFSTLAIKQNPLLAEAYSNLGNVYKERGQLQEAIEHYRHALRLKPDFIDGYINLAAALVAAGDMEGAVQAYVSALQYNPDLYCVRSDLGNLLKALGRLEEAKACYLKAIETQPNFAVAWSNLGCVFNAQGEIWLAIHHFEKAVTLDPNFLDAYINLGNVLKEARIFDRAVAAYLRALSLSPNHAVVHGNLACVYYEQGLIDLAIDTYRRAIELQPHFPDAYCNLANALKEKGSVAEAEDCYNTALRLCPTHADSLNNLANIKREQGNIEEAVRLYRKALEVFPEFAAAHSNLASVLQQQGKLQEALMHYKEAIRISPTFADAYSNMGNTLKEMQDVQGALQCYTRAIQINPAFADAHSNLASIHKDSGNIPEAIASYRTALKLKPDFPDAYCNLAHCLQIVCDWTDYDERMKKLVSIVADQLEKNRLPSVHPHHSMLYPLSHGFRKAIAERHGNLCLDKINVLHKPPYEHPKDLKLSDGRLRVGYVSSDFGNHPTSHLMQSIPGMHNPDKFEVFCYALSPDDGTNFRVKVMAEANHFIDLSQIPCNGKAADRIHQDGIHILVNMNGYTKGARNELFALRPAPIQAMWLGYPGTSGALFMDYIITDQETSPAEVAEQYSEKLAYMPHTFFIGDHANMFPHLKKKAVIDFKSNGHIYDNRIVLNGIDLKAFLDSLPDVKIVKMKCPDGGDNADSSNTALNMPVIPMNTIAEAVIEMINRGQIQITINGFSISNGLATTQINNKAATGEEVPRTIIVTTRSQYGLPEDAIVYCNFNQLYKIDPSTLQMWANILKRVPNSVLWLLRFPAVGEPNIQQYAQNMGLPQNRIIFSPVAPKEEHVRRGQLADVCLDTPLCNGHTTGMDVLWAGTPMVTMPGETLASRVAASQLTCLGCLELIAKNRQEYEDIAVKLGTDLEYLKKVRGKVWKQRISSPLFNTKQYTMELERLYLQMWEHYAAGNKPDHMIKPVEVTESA
Read-out: binding
Method: phage display NGS
Form: peptide
Tested at: concentration not given
Baseline: input library
Endpoint: enrichment fold change
QNLEFFPKYQLVTR: 4.18
YMVDTHHKHHQHPVF: 3.79
SYNHRHSTSYHIDHR: 7.33
QPIHSHAIWPHGTHH: 9.17
TYHAAHVRTWSQHHA: 6.22
TIEHHHRTHTPMPSY: 8.02
SWAPWHIASQRHQDF: 3.39
HSLMHKGHKHHVGDI: 4.09

Series 2
Target: tungstate, free oxyanion
Method: microfluidic competitive inhibition
Medium: in vitro, cell-free expressed
Tested at: not given
Setting: derived from inhibition constants, unchanged parent 2230 nM
Direction: lower = stronger binding
Endpoint: oxyanion analog dissociation constant
Starting sequence: PafA, mature enzyme, eGFP fusion (Elizabethkingia meningoseptica, UniProt Q9KJX5); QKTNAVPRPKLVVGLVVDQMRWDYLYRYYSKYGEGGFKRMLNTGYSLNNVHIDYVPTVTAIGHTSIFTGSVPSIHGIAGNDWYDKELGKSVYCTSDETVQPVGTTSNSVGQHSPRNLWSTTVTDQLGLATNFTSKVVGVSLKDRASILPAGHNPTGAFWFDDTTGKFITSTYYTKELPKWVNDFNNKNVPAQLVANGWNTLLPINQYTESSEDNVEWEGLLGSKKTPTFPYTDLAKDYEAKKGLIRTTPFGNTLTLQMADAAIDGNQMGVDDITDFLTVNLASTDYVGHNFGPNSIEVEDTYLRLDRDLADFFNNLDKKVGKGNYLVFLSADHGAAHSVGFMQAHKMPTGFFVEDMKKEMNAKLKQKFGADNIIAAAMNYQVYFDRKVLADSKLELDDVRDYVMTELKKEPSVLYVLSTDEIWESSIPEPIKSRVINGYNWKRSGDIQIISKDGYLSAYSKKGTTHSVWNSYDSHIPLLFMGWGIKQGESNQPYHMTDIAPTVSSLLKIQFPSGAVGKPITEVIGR
N324G: 1.94 µM
L193V: 1.8 µM
Q366V: 2.3 µM
F480V: 1.92 µM
P149G: 1.28 µM
T57G: 1.04 µM
G488V: 1.56 µM
T228G: 1.54 µM

Single results of other studies
Tested at: 10 µM
C[C@@H]1CN(c2cc(-c3n[nH]c4ccc(OC5(C)CC5)cc34)ncn2)C[C@H](C)O1
inhibition (SLC6A4 (Homo sapiens, UniProt P31645); ligand displacement): -2.29%

NS(=O)(=O)c1cc2c(cc1Cl)N=CNS2(=O)=O
GFP-positive cells (HEK-293T; pseudovirus infection, FDA-approved drug library counter-screen; VSV pseudotyped with VSV-G; 16 h; baseline: vehicle-treated): 102%

For quick reference, copied from above (series 2):
F480V: 1.92 µM
G488V: 1.56 µM
